Measurements pooled from the literature.
Numbered parts are unrelated; each lists some results of a single study. Several values in a cell are separate wells, animals, samples, runs or records.
Sequence of UniProt Q8IU85 (whole entry, looked up): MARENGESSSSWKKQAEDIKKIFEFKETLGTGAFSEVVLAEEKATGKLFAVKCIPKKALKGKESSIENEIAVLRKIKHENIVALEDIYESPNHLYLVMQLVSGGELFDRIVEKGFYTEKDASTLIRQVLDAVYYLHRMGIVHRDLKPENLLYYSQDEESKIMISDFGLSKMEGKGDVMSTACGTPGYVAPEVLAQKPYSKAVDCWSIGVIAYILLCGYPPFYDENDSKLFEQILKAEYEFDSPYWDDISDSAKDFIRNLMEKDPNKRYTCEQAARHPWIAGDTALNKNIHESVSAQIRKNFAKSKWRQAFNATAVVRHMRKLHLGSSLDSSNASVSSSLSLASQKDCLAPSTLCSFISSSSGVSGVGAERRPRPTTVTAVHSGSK
Sequence of UniProt P50613 (whole entry, looked up): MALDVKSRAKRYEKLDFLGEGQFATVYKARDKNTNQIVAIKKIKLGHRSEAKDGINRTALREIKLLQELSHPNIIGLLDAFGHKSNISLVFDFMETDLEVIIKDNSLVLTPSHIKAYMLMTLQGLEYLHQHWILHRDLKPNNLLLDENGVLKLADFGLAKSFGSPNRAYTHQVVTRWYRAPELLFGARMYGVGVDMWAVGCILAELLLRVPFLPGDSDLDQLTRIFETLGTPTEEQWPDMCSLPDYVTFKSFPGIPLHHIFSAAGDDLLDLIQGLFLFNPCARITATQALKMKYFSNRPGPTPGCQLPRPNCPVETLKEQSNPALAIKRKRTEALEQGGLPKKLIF
Sequence of UniProt P53779 (whole entry, looked up): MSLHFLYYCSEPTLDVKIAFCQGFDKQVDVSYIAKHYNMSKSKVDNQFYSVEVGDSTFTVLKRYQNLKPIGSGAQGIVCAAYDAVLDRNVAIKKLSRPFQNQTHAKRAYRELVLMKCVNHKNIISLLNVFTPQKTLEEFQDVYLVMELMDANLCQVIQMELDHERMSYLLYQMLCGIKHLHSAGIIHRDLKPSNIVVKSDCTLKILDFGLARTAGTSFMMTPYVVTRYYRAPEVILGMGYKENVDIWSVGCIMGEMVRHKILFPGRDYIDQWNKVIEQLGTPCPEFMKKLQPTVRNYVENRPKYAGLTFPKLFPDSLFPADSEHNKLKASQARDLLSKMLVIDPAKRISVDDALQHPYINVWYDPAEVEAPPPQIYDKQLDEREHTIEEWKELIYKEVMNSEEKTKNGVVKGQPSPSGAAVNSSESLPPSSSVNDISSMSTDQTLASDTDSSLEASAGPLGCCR
Sequence of UniProt Q9H422 (whole entry, looked up): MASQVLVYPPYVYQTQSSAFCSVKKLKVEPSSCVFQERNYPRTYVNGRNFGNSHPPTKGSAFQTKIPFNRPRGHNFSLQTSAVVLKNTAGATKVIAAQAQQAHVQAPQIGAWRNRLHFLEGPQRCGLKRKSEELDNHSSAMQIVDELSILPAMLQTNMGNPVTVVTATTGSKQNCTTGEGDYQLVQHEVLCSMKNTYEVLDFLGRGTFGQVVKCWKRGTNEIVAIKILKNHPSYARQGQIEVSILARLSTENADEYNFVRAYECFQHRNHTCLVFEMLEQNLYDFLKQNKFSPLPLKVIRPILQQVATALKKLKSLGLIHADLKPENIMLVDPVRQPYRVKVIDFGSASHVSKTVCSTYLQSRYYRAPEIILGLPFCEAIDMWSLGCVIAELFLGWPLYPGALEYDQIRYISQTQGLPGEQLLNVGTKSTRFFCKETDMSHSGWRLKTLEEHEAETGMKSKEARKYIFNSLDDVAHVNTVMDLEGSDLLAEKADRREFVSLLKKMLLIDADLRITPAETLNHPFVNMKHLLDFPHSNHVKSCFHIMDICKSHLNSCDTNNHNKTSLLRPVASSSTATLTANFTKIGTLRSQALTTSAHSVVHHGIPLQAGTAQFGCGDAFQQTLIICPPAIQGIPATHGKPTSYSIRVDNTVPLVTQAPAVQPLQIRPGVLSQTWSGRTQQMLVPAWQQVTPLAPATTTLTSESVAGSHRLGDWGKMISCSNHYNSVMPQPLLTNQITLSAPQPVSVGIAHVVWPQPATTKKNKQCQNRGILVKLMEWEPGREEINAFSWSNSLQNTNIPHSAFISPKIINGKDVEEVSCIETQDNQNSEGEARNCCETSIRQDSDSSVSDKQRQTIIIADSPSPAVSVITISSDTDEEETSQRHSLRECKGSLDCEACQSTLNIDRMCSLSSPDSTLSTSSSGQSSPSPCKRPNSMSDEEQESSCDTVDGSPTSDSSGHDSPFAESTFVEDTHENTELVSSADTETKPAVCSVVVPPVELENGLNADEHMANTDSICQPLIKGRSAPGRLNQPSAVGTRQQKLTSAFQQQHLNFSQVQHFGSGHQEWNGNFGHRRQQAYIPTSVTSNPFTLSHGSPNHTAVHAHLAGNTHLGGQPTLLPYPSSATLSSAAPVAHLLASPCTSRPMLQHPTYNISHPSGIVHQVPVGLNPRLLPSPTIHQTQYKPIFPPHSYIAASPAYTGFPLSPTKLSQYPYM
Sequence of UniProt Q09013 (whole entry, looked up): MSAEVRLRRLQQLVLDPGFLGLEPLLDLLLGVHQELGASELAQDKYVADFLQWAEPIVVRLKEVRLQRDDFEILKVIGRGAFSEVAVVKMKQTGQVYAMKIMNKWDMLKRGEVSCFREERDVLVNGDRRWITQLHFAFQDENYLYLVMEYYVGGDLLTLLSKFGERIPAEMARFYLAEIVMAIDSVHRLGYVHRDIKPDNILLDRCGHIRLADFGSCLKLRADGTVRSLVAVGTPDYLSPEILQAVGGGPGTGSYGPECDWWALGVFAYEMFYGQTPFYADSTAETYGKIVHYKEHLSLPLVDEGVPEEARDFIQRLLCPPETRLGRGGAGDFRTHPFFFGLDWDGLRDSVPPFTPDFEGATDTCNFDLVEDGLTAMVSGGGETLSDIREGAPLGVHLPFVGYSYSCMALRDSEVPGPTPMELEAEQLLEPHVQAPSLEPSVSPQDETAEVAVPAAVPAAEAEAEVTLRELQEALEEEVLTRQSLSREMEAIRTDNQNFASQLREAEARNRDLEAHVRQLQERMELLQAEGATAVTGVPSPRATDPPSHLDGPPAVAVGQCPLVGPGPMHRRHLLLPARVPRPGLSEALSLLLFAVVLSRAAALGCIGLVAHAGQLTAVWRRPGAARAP
Sequence of UniProt Q9Y2U5 (whole entry, looked up): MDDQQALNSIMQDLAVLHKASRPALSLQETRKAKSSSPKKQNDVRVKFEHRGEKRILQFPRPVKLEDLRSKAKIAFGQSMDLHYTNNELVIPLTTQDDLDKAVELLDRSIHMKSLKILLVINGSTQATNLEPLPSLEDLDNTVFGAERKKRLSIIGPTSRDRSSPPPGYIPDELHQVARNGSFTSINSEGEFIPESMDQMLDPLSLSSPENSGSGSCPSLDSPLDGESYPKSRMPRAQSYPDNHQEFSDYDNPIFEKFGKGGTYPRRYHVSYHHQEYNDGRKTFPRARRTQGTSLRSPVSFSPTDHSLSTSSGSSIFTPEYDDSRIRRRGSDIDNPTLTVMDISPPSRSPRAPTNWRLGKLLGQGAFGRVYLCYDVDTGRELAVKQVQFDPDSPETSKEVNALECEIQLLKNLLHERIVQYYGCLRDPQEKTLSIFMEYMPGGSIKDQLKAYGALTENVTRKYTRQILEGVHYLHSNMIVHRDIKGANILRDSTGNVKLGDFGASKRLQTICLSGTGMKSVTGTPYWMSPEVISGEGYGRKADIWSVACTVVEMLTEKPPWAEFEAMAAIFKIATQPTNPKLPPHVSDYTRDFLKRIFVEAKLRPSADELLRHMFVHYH

Block 1
SMILES: Nc1ncnc2c1cnn2-c1ccccc1
Read-out: enzyme activity
Mode: inhibitor
Tested at: 0.5 µM
Baseline: control
| target | remaining activity [%] |
| --- | --- |
| MAP3K2 (Homo sapiens, UniProt Q9Y2U5) | 89.5 |
| CAMK1D (Homo sapiens, UniProt Q8IU85) | 95.6 |
| DMPK (Homo sapiens, UniProt Q09013) | 106 |
| HIPK3 (Homo sapiens, UniProt Q9H422) | 97.6 |
| MAPK10 (Homo sapiens, UniProt P53779) | 100 |
| CDK7 (Homo sapiens, UniProt P50613) | 102 |

Block 2
Target: Centromere-binding protein 1, full length, N-terminal tag (CBF1, Saccharomyces cerevisiae, UniProt P17106, residues 1-351)
Sequence of UniProt P17106 (whole entry, looked up): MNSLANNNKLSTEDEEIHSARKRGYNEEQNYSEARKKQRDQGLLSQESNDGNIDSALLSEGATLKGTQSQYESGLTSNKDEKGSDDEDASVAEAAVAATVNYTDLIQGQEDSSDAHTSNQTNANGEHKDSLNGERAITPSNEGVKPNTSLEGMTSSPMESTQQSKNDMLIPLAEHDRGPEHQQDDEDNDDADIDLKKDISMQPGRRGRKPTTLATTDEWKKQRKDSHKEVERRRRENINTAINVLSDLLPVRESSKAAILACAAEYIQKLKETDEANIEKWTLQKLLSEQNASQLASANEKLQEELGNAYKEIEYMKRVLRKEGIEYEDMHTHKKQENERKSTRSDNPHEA
Method: protein-binding microarray
Form: double-stranded DNA, one strand shown
Matrix: in vitro
Tested at: 0.8 µM
Setting: whole 60-bp probe, no competitor
Direction: higher = stronger binding
| Sequence | fluorescence intensity |
| --- | --- |
| GAAATGGTATGGGTGCACGTGGGATTCTAGGGGTAGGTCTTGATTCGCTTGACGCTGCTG | 3000 a.u. |
| CTAATATCAAAGGATCACGACTAAAGTACCAAGTTCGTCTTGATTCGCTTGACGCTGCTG | 577 a.u. |
| CTAAAATTTTTCAGTCACCTTTAACGAAAATCATTCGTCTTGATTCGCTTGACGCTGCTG | 593 a.u. |
| CTAGGCATAAAGAGGCACATGCGTCGTTTGTAGTTCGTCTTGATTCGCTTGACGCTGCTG | 699 a.u. |
| GAACTAGTATTTACAGGTGAGAAGTTTACTTATTAGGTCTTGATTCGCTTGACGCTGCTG | 551 a.u. |
| TGTACGAAGCTATGTAGTCACGTTATAGTAGTTAGGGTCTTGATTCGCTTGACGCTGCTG | 2500 a.u. |
| CTATTGCCTAAACGTCATCACAGGAGAGGGTAATTCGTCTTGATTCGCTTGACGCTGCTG | 556 a.u. |
| GAATATAATGTTTGCTTCATCACCTTTTTTTACTAGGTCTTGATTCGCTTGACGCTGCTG | 507 a.u. |

Further values, each from its own experiment
| Compound | tested on | test | system | conditions | scale | quantity | result |
| --- | --- | --- | --- | --- | --- | --- | --- |
| CC(=O)N[C@@H](Cc1c[nH]c2ccccc12)C(=O)N[C@@H](CCC(=O)C=[N+]=[N-])C(=O)OC(C)C | – | UPLC-MS/MS | EL4 tumor, C57BL/6 CES1-/- mice, tumor | subcutaneous, 0.3 mg/kg DON equivalent daily, 5 days | higher = more metabolite | pseudouridine level | 382000 a.u. and 273000 a.u. and 206000 a.u. and 258000 a.u. and 430000 a.u. and 274000 a.u. |
| CC(C)n1cnc(-c2ccc(F)cc2)c1-c1ncc(C(=O)Nc2ccc(N3CCN(C)CC3)cc2)[nH]1 | – | refers to: chronic gastritis | human, idiopathic pulmonary fibrosis | dose not given, trial, all arms pooled | – | treatment-emergent AE | 0% |
| Cc1c(C(=O)NN2CCCCC2)nn(-c2ccc(Cl)cc2Cl)c1-c1ccc(I)cc1 | Sarcocystis neurona | – | GFP/FLUC expressing | 10 µM, confirmation screen | – | inhibition | 99.2% |
| Cn1cncc1[C@@](O)(COc1ccc(C#N)cc1-c1ccc(OC(F)(F)F)cc1)c1ccc(C#N)cc1 | HEK293T | high-content imaging | – | 10 µM, 0 h | – | pyknotic nuclei | 28.8% and 24.6% |
